Measurements from different studies.
Parts stem from different laboratories: compare values within a part only. Changes are numbered by the printed parent chain.
Chain of UniProt Q9Y3S1 (whole entry, looked up): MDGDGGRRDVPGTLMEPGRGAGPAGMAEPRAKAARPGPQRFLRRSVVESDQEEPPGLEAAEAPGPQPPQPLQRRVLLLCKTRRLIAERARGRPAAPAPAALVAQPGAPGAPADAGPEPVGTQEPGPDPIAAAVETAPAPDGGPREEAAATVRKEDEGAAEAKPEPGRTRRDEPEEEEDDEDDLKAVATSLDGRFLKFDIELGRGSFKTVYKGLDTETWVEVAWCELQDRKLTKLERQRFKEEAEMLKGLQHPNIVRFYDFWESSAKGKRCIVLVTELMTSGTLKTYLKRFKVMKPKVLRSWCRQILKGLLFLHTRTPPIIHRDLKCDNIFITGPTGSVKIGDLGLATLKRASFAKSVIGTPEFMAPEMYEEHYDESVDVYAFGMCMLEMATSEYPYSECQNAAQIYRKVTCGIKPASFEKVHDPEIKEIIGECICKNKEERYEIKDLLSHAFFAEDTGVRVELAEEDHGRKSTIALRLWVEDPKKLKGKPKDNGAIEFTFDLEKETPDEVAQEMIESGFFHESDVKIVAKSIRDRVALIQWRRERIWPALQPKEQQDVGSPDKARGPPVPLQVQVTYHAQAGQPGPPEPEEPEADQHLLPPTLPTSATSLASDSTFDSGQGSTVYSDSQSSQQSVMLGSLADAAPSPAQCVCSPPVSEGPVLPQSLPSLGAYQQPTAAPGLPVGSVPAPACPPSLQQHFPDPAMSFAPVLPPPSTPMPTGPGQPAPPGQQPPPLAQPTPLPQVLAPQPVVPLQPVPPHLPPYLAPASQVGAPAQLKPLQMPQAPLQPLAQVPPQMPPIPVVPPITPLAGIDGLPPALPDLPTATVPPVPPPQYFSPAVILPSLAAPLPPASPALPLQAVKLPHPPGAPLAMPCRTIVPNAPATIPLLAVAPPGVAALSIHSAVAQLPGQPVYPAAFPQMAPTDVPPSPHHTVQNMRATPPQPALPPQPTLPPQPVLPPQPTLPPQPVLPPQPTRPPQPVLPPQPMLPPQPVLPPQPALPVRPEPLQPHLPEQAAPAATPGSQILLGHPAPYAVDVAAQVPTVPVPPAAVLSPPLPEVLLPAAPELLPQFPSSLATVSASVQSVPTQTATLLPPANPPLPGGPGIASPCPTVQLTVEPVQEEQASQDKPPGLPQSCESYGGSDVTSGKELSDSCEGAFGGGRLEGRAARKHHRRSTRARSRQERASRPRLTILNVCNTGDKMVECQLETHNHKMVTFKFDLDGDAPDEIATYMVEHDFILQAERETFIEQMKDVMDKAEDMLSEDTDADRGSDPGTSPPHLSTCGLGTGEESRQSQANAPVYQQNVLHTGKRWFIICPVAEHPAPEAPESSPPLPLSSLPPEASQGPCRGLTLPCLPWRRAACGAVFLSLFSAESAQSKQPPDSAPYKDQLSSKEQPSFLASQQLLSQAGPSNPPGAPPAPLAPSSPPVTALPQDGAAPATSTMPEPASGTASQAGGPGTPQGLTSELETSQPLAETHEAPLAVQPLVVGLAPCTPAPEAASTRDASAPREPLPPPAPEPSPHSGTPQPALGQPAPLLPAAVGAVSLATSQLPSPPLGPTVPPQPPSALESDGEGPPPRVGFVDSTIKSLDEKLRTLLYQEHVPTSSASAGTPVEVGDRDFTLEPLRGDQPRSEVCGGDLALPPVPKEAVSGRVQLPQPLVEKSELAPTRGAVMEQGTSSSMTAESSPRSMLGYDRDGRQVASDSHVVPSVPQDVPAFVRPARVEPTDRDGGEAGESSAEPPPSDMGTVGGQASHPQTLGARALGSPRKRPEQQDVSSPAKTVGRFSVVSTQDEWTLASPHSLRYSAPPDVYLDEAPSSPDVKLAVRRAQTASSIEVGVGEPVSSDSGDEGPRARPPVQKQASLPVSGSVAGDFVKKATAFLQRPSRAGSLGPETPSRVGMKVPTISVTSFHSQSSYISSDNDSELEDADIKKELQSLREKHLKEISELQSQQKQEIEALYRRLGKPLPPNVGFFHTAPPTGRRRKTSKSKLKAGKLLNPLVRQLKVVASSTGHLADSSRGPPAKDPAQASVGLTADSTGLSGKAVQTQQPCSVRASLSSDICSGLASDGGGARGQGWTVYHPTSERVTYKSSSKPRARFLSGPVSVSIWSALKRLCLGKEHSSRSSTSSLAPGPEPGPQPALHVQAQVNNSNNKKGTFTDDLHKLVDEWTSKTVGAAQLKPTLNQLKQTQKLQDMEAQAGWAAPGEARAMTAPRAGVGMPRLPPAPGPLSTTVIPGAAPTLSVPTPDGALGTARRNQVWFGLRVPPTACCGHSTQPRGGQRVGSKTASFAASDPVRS
Chain of UniProt P49841 (whole entry, looked up): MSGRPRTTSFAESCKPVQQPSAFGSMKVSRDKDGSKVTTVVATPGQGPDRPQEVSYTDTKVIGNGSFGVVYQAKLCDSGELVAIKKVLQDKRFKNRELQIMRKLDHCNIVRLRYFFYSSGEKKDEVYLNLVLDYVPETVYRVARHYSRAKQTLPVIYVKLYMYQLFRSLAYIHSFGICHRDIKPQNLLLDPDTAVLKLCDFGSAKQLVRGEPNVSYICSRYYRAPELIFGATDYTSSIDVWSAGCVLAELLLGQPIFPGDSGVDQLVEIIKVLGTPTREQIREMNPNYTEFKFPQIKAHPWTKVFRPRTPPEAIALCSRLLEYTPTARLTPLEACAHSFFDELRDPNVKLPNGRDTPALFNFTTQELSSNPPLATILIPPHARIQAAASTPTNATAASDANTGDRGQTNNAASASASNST
Chain of UniProt Q9P2K8 (whole entry, unmodified, looked up): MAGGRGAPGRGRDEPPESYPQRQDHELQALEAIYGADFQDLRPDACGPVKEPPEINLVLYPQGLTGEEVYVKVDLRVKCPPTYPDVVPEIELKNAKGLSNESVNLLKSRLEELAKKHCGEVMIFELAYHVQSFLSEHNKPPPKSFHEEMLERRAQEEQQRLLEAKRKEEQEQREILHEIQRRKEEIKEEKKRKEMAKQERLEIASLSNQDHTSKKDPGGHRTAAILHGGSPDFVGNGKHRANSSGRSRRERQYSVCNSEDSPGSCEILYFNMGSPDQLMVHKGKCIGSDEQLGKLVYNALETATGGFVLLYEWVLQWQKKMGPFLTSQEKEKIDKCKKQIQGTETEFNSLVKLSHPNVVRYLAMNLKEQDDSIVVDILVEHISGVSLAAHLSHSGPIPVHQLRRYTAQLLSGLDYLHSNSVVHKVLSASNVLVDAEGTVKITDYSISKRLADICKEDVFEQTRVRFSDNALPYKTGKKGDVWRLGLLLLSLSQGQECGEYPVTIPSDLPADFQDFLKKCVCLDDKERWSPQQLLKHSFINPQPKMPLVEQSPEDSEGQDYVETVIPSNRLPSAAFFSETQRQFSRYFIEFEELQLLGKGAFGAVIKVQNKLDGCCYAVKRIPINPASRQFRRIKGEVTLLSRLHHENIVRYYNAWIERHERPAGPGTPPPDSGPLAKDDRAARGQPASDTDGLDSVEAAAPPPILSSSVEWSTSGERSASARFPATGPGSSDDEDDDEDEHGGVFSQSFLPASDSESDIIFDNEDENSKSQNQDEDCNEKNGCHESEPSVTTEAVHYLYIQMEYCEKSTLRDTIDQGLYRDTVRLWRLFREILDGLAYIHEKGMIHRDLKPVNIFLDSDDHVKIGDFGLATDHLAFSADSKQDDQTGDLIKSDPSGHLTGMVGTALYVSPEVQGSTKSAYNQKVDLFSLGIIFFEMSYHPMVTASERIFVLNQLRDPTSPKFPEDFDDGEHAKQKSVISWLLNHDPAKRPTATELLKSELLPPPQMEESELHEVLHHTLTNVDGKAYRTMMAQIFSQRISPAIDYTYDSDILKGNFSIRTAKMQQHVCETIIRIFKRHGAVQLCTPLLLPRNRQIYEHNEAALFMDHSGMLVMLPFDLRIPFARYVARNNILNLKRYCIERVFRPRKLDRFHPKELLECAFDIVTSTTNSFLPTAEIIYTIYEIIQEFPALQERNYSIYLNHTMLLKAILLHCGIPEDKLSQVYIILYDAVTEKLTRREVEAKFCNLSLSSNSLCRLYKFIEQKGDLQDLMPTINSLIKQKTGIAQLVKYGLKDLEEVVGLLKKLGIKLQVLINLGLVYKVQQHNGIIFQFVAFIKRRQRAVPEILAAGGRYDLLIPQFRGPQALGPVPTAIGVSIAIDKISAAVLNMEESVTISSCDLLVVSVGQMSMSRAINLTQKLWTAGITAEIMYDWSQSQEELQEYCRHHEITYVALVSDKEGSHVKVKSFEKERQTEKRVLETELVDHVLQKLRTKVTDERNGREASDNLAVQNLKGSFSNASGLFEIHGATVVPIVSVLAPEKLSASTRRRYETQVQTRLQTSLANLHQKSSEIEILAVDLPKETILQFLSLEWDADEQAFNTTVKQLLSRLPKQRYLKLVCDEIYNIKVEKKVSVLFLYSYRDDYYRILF
Chain of UniProt Q96PN8 (whole entry, looked up): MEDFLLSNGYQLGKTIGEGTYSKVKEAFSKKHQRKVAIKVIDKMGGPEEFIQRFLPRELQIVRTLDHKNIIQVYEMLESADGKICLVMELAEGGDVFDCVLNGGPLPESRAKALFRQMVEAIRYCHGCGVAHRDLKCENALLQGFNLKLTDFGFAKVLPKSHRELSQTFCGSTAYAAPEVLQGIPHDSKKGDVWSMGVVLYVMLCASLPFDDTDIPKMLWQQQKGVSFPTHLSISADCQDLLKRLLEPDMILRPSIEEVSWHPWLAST
Chain of UniProt Q9P1W9 (whole entry, looked up): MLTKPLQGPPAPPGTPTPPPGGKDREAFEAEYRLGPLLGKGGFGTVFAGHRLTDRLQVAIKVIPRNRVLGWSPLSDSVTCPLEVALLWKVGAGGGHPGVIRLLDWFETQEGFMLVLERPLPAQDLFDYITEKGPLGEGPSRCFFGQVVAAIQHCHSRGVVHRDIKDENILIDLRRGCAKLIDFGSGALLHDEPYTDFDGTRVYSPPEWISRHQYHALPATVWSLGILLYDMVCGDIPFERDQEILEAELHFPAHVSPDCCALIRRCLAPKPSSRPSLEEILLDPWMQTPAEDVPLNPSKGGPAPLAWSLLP

Block 1 — target: CCNF, cyclin fold, Cln2 fusion (human); method: yeast growth competition, sequencing; sample: yeast; setting: strong parent motif; baseline: not given; direction: higher = stronger binding; parent: viral docking peptide; YKVKRRLVFGADD
Variant	normalised enrichment score
YCVKRRLVFGADD [K2C]	8.42
YKVKRRLVAGADD [F9A]	0.706
YKVKRRLVFGAFD [D12F]	9.35
YKVKRRLVYGADD [F9Y]	8.52
YKVNRRLVFGADD [K4N]	8.38
YKVKRRLVFVADD [G10V]	7.83
YKVKRRLVFGSDD [A11S]	8.61
YKVTRRLVFGADD [K4T]	8.55
YQVKRRLVFGADD [K2Q]	8.32
YKVKRRLVFGGDD [A11G]	8.59
YKVKRGLVFGADD [R6G]	7.04
YKVKRRLVFIADD [G10I]	7.86

Block 2 — tested at: 1 µM
Structure (SMILES): N#CC1(c2ccccn2)CCN(Cc2cc(C(=O)O)c(=O)n3ccccc23)CC1
target	effect on	method	remaining binding [%]
MUSK (Homo sapiens, UniProt O15146)	cell-free assay	competition with immobilised ligand	96
FGR (Homo sapiens, UniProt P09769)	cell-free assay	competition with immobilised ligand	94
SIK1 (Homo sapiens, UniProt P57059)		competition binding	92
eIF-2-alpha kinase GCN2, C-terminal kinase domain (EIF2AK4, Homo sapiens, UniProt Q9P2K8, S808G)	cell-free assay	competition with immobilised ligand	100
WNK2 (Homo sapiens, UniProt Q9Y3S1)	cell-free assay	competition with immobilised ligand	79
Myosin-IIIa (MYO3A, Homo sapiens, UniProt Q8NEV4)	binding	competition with immobilised ligand	100
TSSK3 (Homo sapiens, UniProt Q96PN8)	cell-free assay	competition with immobilised ligand	100
EPHA1 (Homo sapiens, UniProt P21709)	cell-free assay	competition with immobilised ligand	100
NEK3 (Homo sapiens, UniProt P51956)	cell-free assay	competition with immobilised ligand	66
IGF1R (Homo sapiens, UniProt P08069)	cell-free assay	competition with immobilised ligand	89
FER (Homo sapiens, UniProt P16591)	cell-free assay	competition with immobilised ligand	100
GSK3B (Homo sapiens, UniProt P49841)	cell-free assay	competition with immobilised ligand	100
RIPK1 (Homo sapiens, UniProt Q13546)	cell-free assay	competition with immobilised ligand	100

Block 3 — method: RNA Bind-n-Seq; form: RNA; sample: in vitro; tested at: 365 nM; baseline: no-protein control; direction: higher = stronger binding
Target: RNA binding protein fox-1 homolog 2, RRM domain, GST-SBP tag (RBFOX2, Homo sapiens, UniProt O43251-10, residues 100-194)
Setting: natural RNA segment, single round, ends assumed
Constant ends, left off below: GGGAGUUCUACAGUCCGACGAUC … UGGAAUUCUCGGGUGCCAA
Sequence	RBNS enrichment (R)
GUUAGUGUUUUGCCUCACCUAAUAGGCUGGGAGACUGAAGACUCAGCCCGGGUGGGGCUGCAGAAAAAUGAUUGGCCCCAGUCCCCUUGUUUGUCCCUUCUACAGGCAUG	0.587
UCUUCGUGCCUGGCUCAUGGUAGAGCACAGUCAUGCACUGACCAAUGGAGGCAGCGUGUACACAUCGUCUUGAGUUUACGUUAUGACAUGGUUUAUUUUUAGUGCUAUUU	0.509
CCUAGCAAUAAGGAGCUCUGGAGAGCCUGCACCUGCCUCCCGCUCGCCUAUAUCUGCUGCCCAGAGGCCUGUCUCGCACAGGGGUCUCGCCACUGCCAAAGACUCCCAGG	2.12
GACAAGGGGACAAUGACCAUCAAUUCAUCUAAUCAGGAAUUGUGAUGGCUUCCUAAGGAAUCUCUGCUUGCUCUGUAUUCUUUAUGUGGAAUAAUAUCAAGAAAUUUUUC	0.633
GAGUCUAACAGACACUGAUUUCAUGUGCACUCCCCUCUGCUUACAAUGUGCAUUUUUUGGAGGUCAUUCAAAUUUUCCCUCUUCUGUGAUUGCUGUAGUUUCUUUCAUAG	1.42
GUGAAGCUGGGAGCAGAUCAUGUAUUUCCCGGAGACGUGGGACCUUGCUGGCAUGUCUCCUUCACAAUCAGGCGUGGGAAUAUCUGGCUUAGGACUGUUUCUCUCUAAGA	2.39
AAAAUUUGAAGAAAAAGAGCCACCUCAUAUUCAUAGAGUGUGUAUUUUGUGAGUGUGUGAGCAUUUGAUUGGAAAUAAGAAAGUUAUUAAGUAAAUUUUUCGUUUUACUU	0.526
AAGGUAUCUGUUUUGUAAGUUUGGAUUUUUGUAUAUCUGGUUUAUCUUAAGCUUCUCUACUGAGGCAUUCUGAGUAGUGGCCAUCAGAGUCUCCUGCCUGCCCACAGAGC	0.378

Block 4 — effect on: enzyme activity; action: inhibitor; tested at: 0.5 µM; baseline: control
SMILES: O=C1NC(=O)c2c1c1c3ccccc3n3c1c1c2c2ccccc2n1[C@H]1CC[C@@H]3O1
target	remaining activity [%]
PIM2 (Homo sapiens, UniProt Q9P1W9)	1.86
NUAK1 (Homo sapiens, UniProt O60285)	2.09
FGFR4 (Homo sapiens, UniProt P22455)	70.4
FLT3 (Homo sapiens, UniProt P36888)	0.194
EPHA7 (Homo sapiens, UniProt Q15375)	69.2
PRKCG (Homo sapiens, UniProt P05129)	32.8
PAK2 (Homo sapiens, UniProt Q13177)	43.9
